Published values pooled from the literature.
Each line is one published result; not all experiments were run side by side. “And” joins repeats or separate records; there may be more than shown. Numbers after ± are the reported error.
CASP10: Caspase-10 (CASP10, Homo sapiens, UniProt Q92851)
Chain of UniProt Q92851 (whole entry, looked up): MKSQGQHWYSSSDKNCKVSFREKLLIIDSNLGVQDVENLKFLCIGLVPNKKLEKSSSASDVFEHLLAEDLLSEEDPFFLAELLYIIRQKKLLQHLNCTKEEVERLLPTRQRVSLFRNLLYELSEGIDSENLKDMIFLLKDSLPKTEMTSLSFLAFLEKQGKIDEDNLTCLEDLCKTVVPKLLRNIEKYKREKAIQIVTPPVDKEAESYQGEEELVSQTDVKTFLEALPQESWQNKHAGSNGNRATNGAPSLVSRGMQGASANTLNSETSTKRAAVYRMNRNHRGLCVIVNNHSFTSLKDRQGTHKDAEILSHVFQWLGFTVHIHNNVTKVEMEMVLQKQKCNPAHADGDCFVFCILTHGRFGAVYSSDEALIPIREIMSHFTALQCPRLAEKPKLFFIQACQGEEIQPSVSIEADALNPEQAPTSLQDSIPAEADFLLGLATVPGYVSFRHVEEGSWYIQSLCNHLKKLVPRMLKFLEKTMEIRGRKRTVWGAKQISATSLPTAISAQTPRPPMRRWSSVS
TARDBP aggregated: TAR DNA-binding protein 43, aggregated (TARDBP, Homo sapiens, UniProt Q13148)
Chain of UniProt Q13148 (whole entry, looked up): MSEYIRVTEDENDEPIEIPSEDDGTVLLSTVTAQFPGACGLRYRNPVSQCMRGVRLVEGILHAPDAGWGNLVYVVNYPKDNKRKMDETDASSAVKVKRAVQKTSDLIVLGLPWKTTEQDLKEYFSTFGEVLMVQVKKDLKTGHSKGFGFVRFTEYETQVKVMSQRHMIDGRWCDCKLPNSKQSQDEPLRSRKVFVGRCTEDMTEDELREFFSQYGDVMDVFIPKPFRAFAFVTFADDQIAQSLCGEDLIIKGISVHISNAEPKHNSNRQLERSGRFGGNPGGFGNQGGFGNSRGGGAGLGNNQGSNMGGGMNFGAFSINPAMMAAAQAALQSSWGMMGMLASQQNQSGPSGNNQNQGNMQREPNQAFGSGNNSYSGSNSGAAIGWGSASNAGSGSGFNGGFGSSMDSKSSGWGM
CASP8: Caspase-8 (CASP8, Homo sapiens, UniProt Q14790)
Chain of UniProt P46089 (whole entry, looked up): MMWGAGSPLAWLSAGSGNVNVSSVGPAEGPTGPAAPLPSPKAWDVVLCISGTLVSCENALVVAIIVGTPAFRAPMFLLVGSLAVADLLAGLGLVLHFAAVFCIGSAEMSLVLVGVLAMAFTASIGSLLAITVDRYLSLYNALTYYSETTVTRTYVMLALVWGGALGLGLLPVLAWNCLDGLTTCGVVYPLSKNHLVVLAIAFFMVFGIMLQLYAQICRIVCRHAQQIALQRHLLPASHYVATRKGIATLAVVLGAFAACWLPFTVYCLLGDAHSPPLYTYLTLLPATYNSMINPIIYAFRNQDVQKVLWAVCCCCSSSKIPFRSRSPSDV
Chain of UniProt Q9NSD7 (whole entry, looked up): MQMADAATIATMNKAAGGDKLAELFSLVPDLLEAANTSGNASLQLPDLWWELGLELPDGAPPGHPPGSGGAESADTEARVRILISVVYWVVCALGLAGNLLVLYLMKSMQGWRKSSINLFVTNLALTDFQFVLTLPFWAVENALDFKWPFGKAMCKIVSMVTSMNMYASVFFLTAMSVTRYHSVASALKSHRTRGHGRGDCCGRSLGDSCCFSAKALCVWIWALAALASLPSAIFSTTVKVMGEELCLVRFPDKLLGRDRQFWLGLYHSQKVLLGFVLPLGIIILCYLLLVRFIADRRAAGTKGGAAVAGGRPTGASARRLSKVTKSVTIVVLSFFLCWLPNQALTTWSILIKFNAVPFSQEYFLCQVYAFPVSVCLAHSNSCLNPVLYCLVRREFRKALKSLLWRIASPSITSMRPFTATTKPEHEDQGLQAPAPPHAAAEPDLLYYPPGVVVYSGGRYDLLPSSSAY
Chain of UniProt Q9Y4E8 (whole entry, looked up): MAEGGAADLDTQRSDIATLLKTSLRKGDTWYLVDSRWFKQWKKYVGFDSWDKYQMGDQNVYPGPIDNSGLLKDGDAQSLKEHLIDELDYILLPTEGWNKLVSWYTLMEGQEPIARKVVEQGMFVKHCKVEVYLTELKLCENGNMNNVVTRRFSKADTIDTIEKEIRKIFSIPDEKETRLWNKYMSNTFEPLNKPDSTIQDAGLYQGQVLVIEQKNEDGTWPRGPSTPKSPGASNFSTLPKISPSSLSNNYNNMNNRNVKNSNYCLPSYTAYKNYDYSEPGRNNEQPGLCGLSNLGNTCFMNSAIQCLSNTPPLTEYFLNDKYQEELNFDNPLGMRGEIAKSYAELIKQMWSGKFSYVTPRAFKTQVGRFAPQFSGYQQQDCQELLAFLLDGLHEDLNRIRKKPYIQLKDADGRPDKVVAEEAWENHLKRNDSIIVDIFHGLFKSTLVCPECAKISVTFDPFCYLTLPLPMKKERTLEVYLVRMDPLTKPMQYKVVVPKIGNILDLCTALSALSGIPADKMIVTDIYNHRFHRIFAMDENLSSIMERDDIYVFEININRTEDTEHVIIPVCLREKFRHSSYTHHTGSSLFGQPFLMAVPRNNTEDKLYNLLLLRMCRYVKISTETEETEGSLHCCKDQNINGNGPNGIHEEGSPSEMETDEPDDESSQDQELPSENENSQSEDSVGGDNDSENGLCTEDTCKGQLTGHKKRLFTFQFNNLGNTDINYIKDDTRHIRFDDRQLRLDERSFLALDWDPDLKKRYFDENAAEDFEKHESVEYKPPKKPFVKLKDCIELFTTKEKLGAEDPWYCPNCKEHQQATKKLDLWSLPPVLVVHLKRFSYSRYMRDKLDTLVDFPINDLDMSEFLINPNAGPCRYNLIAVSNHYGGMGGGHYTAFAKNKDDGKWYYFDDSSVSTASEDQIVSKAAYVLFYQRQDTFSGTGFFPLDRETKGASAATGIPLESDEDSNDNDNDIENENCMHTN
Chain of UniProt P17706 (whole entry, looked up): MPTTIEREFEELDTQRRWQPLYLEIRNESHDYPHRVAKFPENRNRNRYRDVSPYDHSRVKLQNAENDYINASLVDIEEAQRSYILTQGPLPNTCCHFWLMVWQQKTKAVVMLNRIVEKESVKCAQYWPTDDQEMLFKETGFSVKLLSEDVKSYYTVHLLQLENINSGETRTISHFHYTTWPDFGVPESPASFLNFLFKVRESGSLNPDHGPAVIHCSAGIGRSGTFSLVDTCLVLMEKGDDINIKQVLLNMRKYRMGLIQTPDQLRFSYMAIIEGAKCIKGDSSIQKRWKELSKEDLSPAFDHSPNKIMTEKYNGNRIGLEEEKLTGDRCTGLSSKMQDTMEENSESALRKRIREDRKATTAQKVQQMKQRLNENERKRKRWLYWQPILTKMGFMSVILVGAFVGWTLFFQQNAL
Chain of UniProt Q14790 (whole entry, looked up): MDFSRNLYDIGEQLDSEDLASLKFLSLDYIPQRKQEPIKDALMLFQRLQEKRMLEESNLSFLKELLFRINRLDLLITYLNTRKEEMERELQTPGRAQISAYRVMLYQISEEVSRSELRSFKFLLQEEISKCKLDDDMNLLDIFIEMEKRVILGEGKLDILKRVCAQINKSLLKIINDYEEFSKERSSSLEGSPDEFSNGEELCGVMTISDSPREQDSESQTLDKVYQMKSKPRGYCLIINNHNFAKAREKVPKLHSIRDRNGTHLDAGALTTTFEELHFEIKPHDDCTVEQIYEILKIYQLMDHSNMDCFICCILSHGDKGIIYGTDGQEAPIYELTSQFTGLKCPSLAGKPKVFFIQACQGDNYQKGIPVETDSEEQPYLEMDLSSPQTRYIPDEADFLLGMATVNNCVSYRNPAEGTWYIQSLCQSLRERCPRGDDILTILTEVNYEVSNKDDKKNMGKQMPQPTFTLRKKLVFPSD
Chain of UniProt P27694 (whole entry, looked up): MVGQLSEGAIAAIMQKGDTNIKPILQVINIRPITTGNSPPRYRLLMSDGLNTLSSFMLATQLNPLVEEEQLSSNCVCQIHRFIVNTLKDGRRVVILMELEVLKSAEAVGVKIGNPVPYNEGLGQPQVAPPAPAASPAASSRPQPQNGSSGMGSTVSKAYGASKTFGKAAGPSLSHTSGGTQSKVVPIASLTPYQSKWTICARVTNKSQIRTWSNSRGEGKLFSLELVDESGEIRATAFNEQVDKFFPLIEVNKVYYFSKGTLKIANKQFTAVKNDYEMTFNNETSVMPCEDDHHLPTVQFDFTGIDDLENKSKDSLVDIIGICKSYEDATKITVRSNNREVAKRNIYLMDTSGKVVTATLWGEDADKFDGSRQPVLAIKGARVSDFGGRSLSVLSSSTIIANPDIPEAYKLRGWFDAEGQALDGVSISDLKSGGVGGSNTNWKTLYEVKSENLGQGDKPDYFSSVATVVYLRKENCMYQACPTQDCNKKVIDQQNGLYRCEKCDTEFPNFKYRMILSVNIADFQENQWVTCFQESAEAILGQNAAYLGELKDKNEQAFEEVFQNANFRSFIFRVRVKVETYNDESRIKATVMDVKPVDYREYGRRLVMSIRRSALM
Chain of UniProt Q8NHH9 (whole entry, looked up): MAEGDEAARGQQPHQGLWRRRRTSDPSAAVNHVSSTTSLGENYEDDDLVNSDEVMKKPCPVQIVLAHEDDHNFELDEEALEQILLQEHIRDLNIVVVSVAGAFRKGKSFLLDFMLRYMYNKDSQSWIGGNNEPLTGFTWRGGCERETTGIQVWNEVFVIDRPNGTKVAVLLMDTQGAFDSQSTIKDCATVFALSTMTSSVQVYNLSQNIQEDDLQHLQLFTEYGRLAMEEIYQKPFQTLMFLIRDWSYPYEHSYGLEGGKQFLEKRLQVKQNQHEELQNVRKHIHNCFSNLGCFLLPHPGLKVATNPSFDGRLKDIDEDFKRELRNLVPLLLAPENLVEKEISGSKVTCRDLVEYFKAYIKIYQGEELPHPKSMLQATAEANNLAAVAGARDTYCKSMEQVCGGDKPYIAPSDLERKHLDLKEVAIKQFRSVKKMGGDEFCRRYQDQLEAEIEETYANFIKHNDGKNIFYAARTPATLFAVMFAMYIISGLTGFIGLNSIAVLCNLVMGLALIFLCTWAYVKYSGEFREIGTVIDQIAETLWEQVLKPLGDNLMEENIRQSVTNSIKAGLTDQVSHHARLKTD

| Structure (SMILES) | target | test | system | setting | how to read | quantity | result |
| --- | --- | --- | --- | --- | --- | --- | --- |
| CCNC(=S)NN=Cc1c2ccccc2cc2ccccc12.Cc1ccc(C(C)C)cc1.[Cl-].[Cl-].[Ru+2] | DNA topoisomerase 2-alpha (TOP2A, Homo sapiens, UniProt P11388) | DNA relaxation, inhibitor | – | 30 min, 37 °C, together with: pHOT1 DNA | – | minimum inhibitory concentration | 20 µM |
| C[n+]1cn([C@@H]2O[C@H](COP(=O)(O)OP(=O)([O-])OP(=O)(O)O)[C@@H](O)[C@H]2O)c2nc(N)nc(O)c21 | m7GpppX diphosphatase (DCPS, Homo sapiens, UniProt Q96C86) | substrate, HPLC | – | concentration not given, 30 min | – | hydrolysis | 22.3 ± 1.6% |
| CC1(C)C[C@@H](Nc2cccc(-c3sc(C(=O)O)c(OCC(=O)O)c3Cl)c2)CCN1S(=O)(=O)Cc1cccc(NC(=O)CN2CCC(c3ccc4c(c3)oc(=O)n4C3CCC(=O)NC3=O)CC2)c1 (some centres unmarked) | Tyrosine-protein phosphatase non-receptor type 2 (PTPN2, Homo sapiens, UniProt P17706) | degrader, bio-layer interferometry | – | 500 nM, biotinylated protein immobilised | higher = more binding | BLI binding response | 0.506 a.u. and 0.491 a.u. |
| CC(=O)N[C@@H](CC(=O)O)C(=O)N[C@@H](CC(C)C)C(=O)N[C@H](C(=O)N[C@@H](C)C(=O)N[C@@H](CC(=O)O)C(=O)COC(=O)c1c(C)cccc1C)[C@@H](C)O | CASP10 | inhibitor | – | recombinant enzyme | – | kobs/[I] | 144000 M⁻¹ s⁻¹ |
| CC[C@H](C)[C@H](NC(=O)[C@H](CCC(N)=O)NC(=O)[C@@H](NC(=O)[C@@H]1CCCN1[C@@H]1CN(C(=O)[C@H](CCCCN)NC(=O)[C@H](CC(N)=O)NC(=O)[C@@H](NC(=O)[C@@H](NC(=O)[C@H](CCC(N)=O)NC(=O)[C@@H](N)C(C)C)[C@@H](C)CC)[C@@H](C)CC)CC[C@H]1NS(=O)(=O)c1ccc(C)cc1)C(C)C)C(=O)N[C@H](C(=O)N[C@@H](Cc1ccc(O)cc1)C(=O)N[C@@H](CCCCN)C(N)=O)C(C)C | Microtubule-associated protein tau, PHF6* peptide (MAPT, Homo sapiens, UniProt P10636) | fibril formation, ThT fluorescence | – | 5-fold of peptide, 240 min, pH 7.4, together with: Ac-PHF6* 25 µM, heparin | baseline: untreated | ThT fluorescence | 9 ± 1% |
| CCN(CC)C(=O)c1ccc(O)c(OC)c1 | Heat shock protein HSP 90-alpha, N-terminal domain (HSP90AA1, Homo sapiens, UniProt P07900) | binding, ligand-observed NMR titration | – | 9.80 µM, ligand to protein ratio 366 | – | bound ligand fraction | 0.22 |
| CC(C)C1=CC23CCC4C(C)(C(=O)O)CCCC4(C)C2CC1C(C(=O)O)C3C(=O)O (centres unmarked) | Replication protein A 70 kDa DNA-binding subunit (RPA1, Homo sapiens, UniProt P27694) | binding, tryptophan fluorescence quenching | – | 3 µM, full-length protein, emission 348 nm | – | tryptophan fluorescence change | 28% |
| O=C1c2sc(-c3ccc(N4CCC(F)C4)nc3F)nc2CCN1c1cccnc1 (centres unmarked) | TARDBP aggregated | radioligand binding | human, FTLD-TDP type B extract | together with: radioligand 13.55 nM | – | specific binding | 2.19 nM and 2.22 nM |
| Fc1ccc(Nc2nc(NC3CCCCC3)c3ccccc3n2)cc1F | Beta-2 adrenergic receptor (ADRB2, Homo sapiens, UniProt P07550, F133L) | β-arrestin2 recruitment, antagonist, BRET | – | mutant F133L | baseline: isoprenaline maximal response | maximal inhibition | 17% |
| O=C(N[C@@H](Cc1ccc(OCCCCC2CCNCC2)cc1)C(=O)O)c1nc2ccccc2o1.O=C(O)C(F)(F)F | Integrin alpha-IIb/beta-3 (Homo sapiens, UniProt P05106+P08514) | inhibitor, flow cytometry | washed platelets, human | 360 nM, 30 min, room temperature, together with: ADP 20 µM, Alexa647-fibrinogen | higher = more binding | fibrinogen binding MFI | 67000 a.u. |
| Cc1cc(NC(=O)COc2ccc(Cl)cc2Cl)n(CC(F)(F)F)n1 | Kir3.1/Kir3.4 (Homo sapiens, UniProt P48544+P48549) | thallium flux, activator | HEK293 | – | baseline: standard compound | Emax | 75% |
| C#CCOC(=O)[C@@]1(C)C=C(C(=O)OC(C)(C)C)C(=O)CC1 | Mitogen-activated protein kinase 8 (MAPK8, Homo sapiens, UniProt P45983) | enzyme activity, D-SENSOR | – | 0.02032 µM, mean of replicates | – | normalized kinase activity | 1.04 |
| N=C(N)NCCS(=O)(=O)O | Sodium- and chloride-dependent taurine transporter (SLC6A6, Homo sapiens, UniProt P31641, G62A) | binding, microscale thermophoresis | – | 61 nM, room temperature, together with: 50 nM labelled protein | higher = more binding | normalised MST signal | 0.0314 |
| CC[C@H](C)[C@@H]1NC(=O)[C@H](Cc2ccccc2)NC(=O)[C@H](CCC(=O)O)NC(=O)[C@H](CCCNC(=N)N)NC(=O)CNC(=O)[C@@H](NC(=O)[C@H](CC(C)C)NC(=O)[C@H](CCCNC(=N)N)NC(=O)[C@@H](NC(=O)CNC(=O)[C@H](Cc2ccc(O)cc2)NC(=O)[C@@H]2CCCN2C(=O)[C@H](C)NC(=O)[C@H](C)NC(=O)[C@@H](N)CCCNC(=N)N)C(C)C)CSSC[C@@H]2NC(=O)[C@@H](NC(=O)[C@H](CO)NC(=O)[C@H](CO)NC(=O)[C@H](CO)NC(=O)[C@H](CC(C)C)NC(=O)CNC(=O)[C@H](C)NC(=O)[C@H](CC(C)C)NC(=O)[C@@H](NC(=O)[C@@H](N)CC(=O)O)C(C)C)CSSC[C@H](NC(=O)CNC(=O)[C@H](Cc3c[nH]c4ccccc34)NC(=O)[C@H](CCCCN)NC2=O)C(=O)N[C@@H](CO)C(=O)N[C@@H](CCCCN)C(=O)N[C@@H](CO)C(=O)N[C@@H](CCC(=O)O)C(=O)N[C@@H]([C@@H](C)CC)C(=O)N[C@@H](CO)C(=O)N[C@@H](CO)C(=O)N[C@@H](CC(C)C)C(=O)N[C@H](C(=O)O)CSSC[C@@H](C(=O)NCC(=O)NCC(=O)N[C@@H](CO)C(=O)N[C@@H](CCCNC(=N)N)C(=O)N[C@@H](Cc2c[nH]c3ccccc23)C(=O)O)NC(=O)[C@H]([C@@H](C)O)NC(=O)[C@H](Cc2ccccc2)NC(=O)[C@H]([C@@H](C)CC)NC(=O)[C@H](C(C)C)NC(=O)[C@H](C)NC(=O)[C@H](CCCNC(=N)N)NC1=O | Relaxin-3 receptor 1 (RXFP3, Homo sapiens, UniProt Q9NSD7) | agonist | – | 15.6 nM, wild-type receptor | – | cAMP accumulation | 1.56% and -1.46% and 1.41% |
| CC[C@H](C)[C@H](NC(=O)[C@@H](NC(=O)[C@H](CCCCN)NC(=O)[C@@H](N)[C@@H](C)O)C(C)C)C(=O)N[C@@H](CC(C)C)C(=O)N[C@@H](Cc1c[nH]cn1)C(N)=O | Microtubule-associated protein tau (MAPT, Homo sapiens, UniProt P10636) | ThT fluorescence | – | 0.1-fold over protein, 30 h, together with: tau 10 µM, heparin | baseline: untreated | fibrillization plateau fluorescence | 143 ± 7% |
| C=CS(=O)(=O)c1ccc(Nc2nc(OCC3CCCCC3)c3nc[nH]c3n2)cc1 | Gasdermin-D (GSDMD, Homo sapiens, UniProt P57764) | thermal stability, DSF | – | 20 µM | – | ΔTm | 9 °C |
| COc1ccc(C(=O)c2c(C(=O)NCCCN(C)C)oc3ccc(Cl)cc3c2=O)cc1OC | Growth hormone secretagogue receptor type 1 (GHSR, Homo sapiens, UniProt Q92847) | endosomal trafficking, agonist, bystander BRET 2xFYVE-Venus | – | 0 min, unit not given | baseline: baseline | Emax (net BRET) | 0 |
| CC(=O)N[C@@H](CC(=O)O)C(=O)N[C@@H](CC(C)C)C(=O)N[C@@H](C)C(=O)N[C@@H](CC(=O)O)C(=O)COC(=O)c1c(C)cccc1C | CASP8 | enzyme activity, inhibitor | – | – | – | kinact/KI | 246000 M⁻¹ s⁻¹ |
| CC(C)Oc1cc(Cl)ccc1CNc1cc(-c2ccccc2)nc2ncnn12 | G-protein coupled receptor 3 (GPR3, Homo sapiens, UniProt P46089) | cAMP reporter | human cells | 3 µM | higher is more cAMP | cAMP luminescence | 4280 a.u. and 2800 a.u. and 3240 a.u. and 2680 a.u. and 12600 a.u. and 12500 a.u. and 5250 a.u. |
| CC(=O)N[C@@H](CC(C)C)C(=O)N[C@@H](CCC(=O)O)C(=O)N[C@@H](Cc1c[nH]cn1)C(=O)N[C@@H](CC(=O)O)C(=O)COC(=O)c1c(C)cccc1C | CASP10 | enzyme activity, inhibitor | – | – | – | kinact/KI | 370000 M⁻¹ s⁻¹ |
| CCCCCCCCCCCCC/C=C/C=O | Exportin-2 (Homo sapiens, UniProt P55060) | competitive isoTOP-ABPP, refers to: CSE1L cysteine peptide | proteome, soluble, MDA-MB-231 | 100 µM, together with: iodoacetamide probe | baseline: DMSO over compound-treated, higher = stronger cysteine blockade | isoTOP-ABPP competition ratio | 1.3 |
| CC(=O)N[C@@H](CC(C)C)C(=O)N[C@H](C(=O)N[C@@H](Cc1ccc(O)cc1)C(=O)N[C@@H](CC(=O)O)C(=O)COC(=O)c1c(C)cccc1C)C(C)(C)C | CASP10 | enzyme activity, inhibitor | – | – | – | kinact/KI | 407000 M⁻¹ s⁻¹ |
| Cc1cc(C)cc(COc2cc3c(cc2OCc2cc(C)cc(C)c2)C2CC(O)(Cc4cn(CCOCCOCCNC(=O)CCCCC5SCC6NC(=O)NC65)nn4)CC(C)N2CC3)c1 (centres unmarked) | Atlastin-2 (ATL2, Homo sapiens, UniProt Q8NHH9) | biotinylated probe pull-down, refers to: ATL2 | – | 10 µM probe | baseline: heavy over light | SILAC ratio | 1.48 |
| CC(=O)N[C@@H](CC(=O)O)C(=O)N[C@@H](CCCC(=O)O)C(=O)N[C@@H](CC(C)C)C(=O)N[C@@H](CC(=O)O)C(=O)COC(=O)c1c(C)cccc1C | CASP10 | inhibitor | – | recombinant enzyme | – | kobs/[I] | 260000 M⁻¹ s⁻¹ |
| O=C1c2sc(-c3ccc(N4CCC(CO)CC4)nc3F)nc2CCN1c1cccnc1 | TARDBP aggregated | radioligand binding | human, FTLD-TDP type C sarkosyl-insoluble extract | 18.97 nM | – | specific binding | 0.258 nM and 0.154 nM and 0.23 nM |
| CC(=O)N[C@H](C(=O)N[C@@H](CCCC(=O)O)C(=O)N[C@@H](CCC1CCCCC1)C(=O)N[C@@H](CC(=O)O)C(=O)COC(=O)c1c(C)cccc1C)C(C)(C)C | CASP10 | enzyme activity, inhibitor | – | – | – | kinact/KI | 484000 M⁻¹ s⁻¹ |
| Cc1cc(C)c2c(Cn3ccnc3)cc(=O)oc2c1 | Alpha-1A adrenergic receptor (ADRA1A, Homo sapiens, UniProt P35348) | flow cytometry binding | COS-7 | 500 µM, tracer 6.25 nM | – | inhibition of binding | 25.2 ± 1.94% |
| CC(=O)N[C@@H](Cc1ccc(I)cc1)C(=O)N[C@@H](CCC(=O)O)C(=O)N[C@H](C(=O)N[C@@H](CC(=O)O)C(=O)COC(=O)c1c(C)cccc1C)[C@@H](C)O | CASP8 | enzyme activity, inhibitor | – | – | – | kinact/KI | 796000 M⁻¹ s⁻¹ |
| N#CN1CC[C@H](C(=O)Nc2nc3c(s2)CN(C(=O)Cn2cc(COCCOCCOCCOCCNC(=O)CCCC[C@@H]4SC[C@@H]5NC(=O)N[C@@H]54)nn2)CC3)C1 | Ubiquitin carboxyl-terminal hydrolase 15 (USP15, Homo sapiens, UniProt Q9Y4E8) | probe binding, affinity probe, neutravidin pull-down LC-MS/MS | HEK293T, cell lysate | 5 µM, 1 h, single replicate, unit not given | higher = more pulled down | iBAQ abundance | 1.82e+06 and 1.19e+06 and 2.42e+06 |

A few entries again:
| Structure (SMILES) | target | test | system | setting | how to read | quantity | result |
| --- | --- | --- | --- | --- | --- | --- | --- |
| Fc1ccc(Nc2nc(NC3CCCCC3)c3ccccc3n2)cc1F | Beta-2 adrenergic receptor (ADRB2, Homo sapiens, UniProt P07550, F133L) | β-arrestin2 recruitment, antagonist, BRET | – | mutant F133L | baseline: isoprenaline maximal response | maximal inhibition | 17% |
| N#CN1CC[C@H](C(=O)Nc2nc3c(s2)CN(C(=O)Cn2cc(COCCOCCOCCOCCNC(=O)CCCC[C@@H]4SC[C@@H]5NC(=O)N[C@@H]54)nn2)CC3)C1 | Ubiquitin carboxyl-terminal hydrolase 15 (USP15, Homo sapiens, UniProt Q9Y4E8) | probe binding, affinity probe, neutravidin pull-down LC-MS/MS | HEK293T, cell lysate | 5 µM, 1 h, single replicate, unit not given | higher = more pulled down | iBAQ abundance | 1.82e+06 and 1.19e+06 and 2.42e+06 |
